Measurements from different studies.
Lines come from different studies, so protocols differ. ± gives the spread as reported.

CC[C@H](C)[C@H](NC(=O)[C@@H]1CCCN1C(=O)[C@H](CCCCN)NC(=O)[C@@H]1CCCN1C(=O)[C@@H]1CCCN1C(=O)[C@@H](NC(=O)[C@@H]1CCCN1C(=O)[C@H](CCCNC(=N)N)NC(=O)[C@@H]1CCCN1C(=O)[C@H](CCCCN)NC(=O)[C@H](Cc1ccc(O)cc1)NC(=O)[C@H](CO)NC(=O)CNC(=O)[C@H](CCCCN)NC(=O)[C@H](CC(=O)O)NC(=O)[C@@H](N)C(C)C)[C@@H](C)O)C(=O)N[C@@H](Cc1ccc(O)cc1)C(=O)N[C@@H](CC(N)=O)C(=O)N[C@@H](CCCNC(=N)N)C(=O)N[C@@H](CC(N)=O)C(=O)O — MIC (Salmonella enterica; serovar Infantis #129 B; 18 h, 37 °C, 12.5% Mueller-Hinton broth): 0.3 ± 0.07 µM
Cc1cccc(C(=O)N/N=C/c2ccccc2Cl)c1 — MIC (Staphylococcus aureus, Bacillus subtilis, Escherichia coli; bacterial growth; 24 h): 45.7 µM
LSTFFRLFNGRRRRSVQWCA — MIC (Streptococcus mutans; broth microdilution; peptide, GS-5; 24 h, 37 °C, planktonic, anaerobic): 13.3 ± 4 µg/mL
O=C(O)c1cn(C2CC2)c2cc(N3CCNCC3)c(F)cc2c1=O — MIC (Staphylococcus aureus, Bacillus subtilis, Escherichia coli; bacterial growth; 24 h): 2.45 µM
NCC[C@H](O)C(=O)N[C@@H]1C[C@H](N)[C@@H](O[C@H]2O[C@H](CN)[C@@H](O)[C@H](O)[C@H]2O)[C@H](O)[C@H]1O[C@H]1O[C@H](CO)[C@@H](O)[C@H](N)[C@H]1O — MIC (Mycobacteroides abscessus; ATCC 19977 ∆whiB7 ∆tap; 120 h): 0.25 µg/mL
O=C(NCc1ccc2c(c1)OCO2)c1ccc(Br)cc1F — MIC (Nakaseomyces glabratus; microbial growth; ATCC2001; 72 h): 50 µM
CN[C@H](CC(C)C)C(=O)N[C@H]1C(=O)N[C@@H](CC(N)=O)C(=O)N[C@H]2C(=O)N[C@H]3C(=O)N[C@H](C(=O)N[C@H](C(=O)O)c4cc(O)cc(O)c4-c4cc3ccc4O)[C@H](O)c3ccc(c(Cl)c3)Oc3cc2cc(c3O[C@@H]2O[C@H](CO)[C@@H](O)[C@H](O)[C@H]2O[C@H]2C[C@](C)(N)[C@H](O)[C@H](C)O2)Oc2ccc(cc2Cl)[C@H]1O — MIC (Enterococcus faecium; ATCC 700221): > 50 µg/mL
COc1ccc(/N=N/C(C=O)=C(/O)c2cc3ccccc3o2)cc1 — MIC (Bacillus cereus; microbial growth, broth dilution; UW85; 18 h): 256 µg/mL
Cc1ccc(C(=O)N/N=C/c2ccccc2)cc1 — MIC (Aspergillus niger; microbial growth, broth dilution; 7 days): 13.2 µM
CN[C@@H]1[C@H](O)[C@H](NC)[C@H]2O[C@@]3(O)C(=O)C[C@@H](C)O[C@H]3O[C@@H]2[C@H]1O — MIC (Mycobacteroides abscessus; ATCC 19977 ∆whiB7 ∆tap; 120 h): 32 to 64 µg/mL
N=C(N)NCCC[C@H](N)C(=O)N[C@@H](Cc1c[nH]c2ccccc12)C(=O)N[C@@H](Cc1c[nH]c2ccccc12)C(=O)N[C@@H](CCCCN)C(=O)N[C@@H](CCCCN)C(=O)N[C@@H](Cc1c[nH]c2ccccc12)C(=O)N[C@@H](Cc1c[nH]c2ccccc12)C(=O)NCC(=O)N[C@@H](CCCCN)C(N)=O — MIC (Staphylococcus epidermidis; broth microdilution; 1457, Mueller-Hinton broth; overnight, 37 °C): 16 µM
CN[C@H](CC(C)C)C(=O)N[C@H]1C(=O)N[C@@H](CC(N)=O)C(=O)N[C@H]2C(=O)N[C@H]3C(=O)N[C@H](C(=O)N[C@H](C(=O)O)c4cc(O)cc(O)c4-c4cc3ccc4O)[C@H](O)c3ccc(c(Cl)c3)Oc3cc2cc(c3O[C@@H]2O[C@H](CO)[C@@H](O)[C@H](O)[C@H]2O[C@H]2C[C@](C)(N)[C@H](O)[C@H](C)O2)Oc2ccc(cc2Cl)[C@H]1O — MIC (Enterococcus faecium; vancomycin-resistant ATCC 700221; 20 h): 256 µg/mL
CC(C)C[C@H](NC(=O)[C@H](C)NC(=O)[C@@H](N)CO)C(=O)N[C@@H](Cc1c[nH]cn1)C(=O)N[C@@H](CC(C)C)C(=O)N[C@H](C(=O)N[C@@H](CC(C)C)C(=O)N[C@@H](CCCNC(=N)N)C(=O)N[C@@H](CC(C)C)C(=O)N[C@@H](CCCNC(=N)N)C(=O)NCC(=O)NCC(=O)O)C(C)C — MIC (Mycolicibacterium smegmatis; mc2 155; 37 °C, ≥90% viability decrease): 50 µM
CC[C@H](C)[C@H](NC(=O)[C@@H]1CCCN1C(=O)[C@H](CCCNC(=N)N)NC(=O)[C@@H]1CCCN1C(=O)[C@@H]1CCCN1C(=O)[C@@H](NC(=O)[C@@H]1CCCN1C(=O)[C@H](CCCNC(=N)N)NC(=O)[C@@H]1CCCN1C(=O)[C@H](CC(C)C)NC(=O)[C@H](Cc1ccc(O)cc1)NC(=O)[C@H](CO)NC(=O)CNC(=O)[C@H](CCCCN)NC(=O)[C@H](CC(=O)O)NC(=O)[C@@H](N)C(C)C)[C@@H](C)O)C(=O)N[C@@H](Cc1ccc(O)cc1)C(=O)N[C@@H](CC(N)=O)C(=O)N[C@@H](CCCNC(=N)N)C(=O)N[C@@H](CC(N)=O)C(=O)O — MIC (Salmonella enterica; serovar Infantis #129 B; 18 h, 37 °C, 12.5% Mueller-Hinton broth): > 0.6 µM
CC(C)C[C@H](NC(=O)CNC(=O)[C@H](C)NC(=O)[C@@H](N)CCCNC(=N)N)C(=O)N[C@@H](CCC(N)=O)C(=O)N[C@@H](Cc1ccccc1)C(=O)N1CCC[C@H]1C(=O)N[C@H](C(=O)NCC(=O)N[C@@H](CCCNC(=N)N)C(=O)N[C@H](C(=O)N[C@@H](Cc1c[nH]cn1)C(=O)N[C@@H](CCCNC(=N)N)C(=O)N[C@@H](CC(C)C)C(=O)N[C@@H](CC(C)C)C(=O)N[C@@H](CCCNC(=N)N)C(=O)N[C@@H](CCCCN)C(N)=O)C(C)C)C(C)C — MIC (Staphylococcus epidermidis; ATCC 12228; 18 to 20 h): 8 µM
C/C=C/C=C/C(=O)N/N=C/c1ccccc1 — MIC (Aspergillus niger; microbial growth, broth dilution; 7 days): 28.8 µM
Cc1ccc(OCc2n(CC(=O)OC3CC(C)CCC3C(C)C)c3ccccc3[n+]2C)cc1 (centres unmarked) — MIC (Mycolicibacterium smegmatis; microbial growth): 5 µM
STFFRLFNRSFTQGRRRRSVQWCA — MIC (Streptococcus mutans; broth microdilution; peptide, GS-5; 24 h, 37 °C, planktonic, anaerobic): 13.3 ± 4 µg/mL
N=C(N)NCCC[C@H](NC(=O)[C@H](Cc1c[nH]cn1)NC(=O)[C@@H]1CCCN1C(=O)[C@H](CS)NC(=O)[C@@H]1CCCN1)C(=O)N[C@@H](CS)C(=O)O — MIC (Streptococcus pyogenes; broth microdilution; MTCC 442; 37 °C): 60 µg/mL
O=C(/C=C/c1ccccc1)N/N=C/c1ccccc1 — MIC (Staphylococcus aureus, Bacillus subtilis, Escherichia coli; bacterial growth; 24 h): 50.1 µM
CC1CCC(C(C)C)C(OC(=O)Cn2c(COc3ccccc3)[n+](C)c3ccccc32)C1 (centres unmarked) — MIC (Mycobacteroides abscessus; microbial growth): 26.7 µM
COC(=O)[C@H](Cc1ccccc1)NC(=O)c1ccc(NC(=O)c2cc(Br)c(Br)[nH]2)c(OCCN)c1 — MIC (Enterococcus faecalis; microbial growth, broth dilution; ATCC29212): > 25 µM
CCCCCCCCCCCC(=O)N/N=C/c1ccccc1Cl — MIC (Staphylococcus aureus, Bacillus subtilis, Escherichia coli; bacterial growth; 24 h): 28.2 µM
pneumocandin J — MIC (Candida parapsilosis; broth microdilution, resazurin; ATCC 90018; 24 h, 35 °C): 25.6 µg/mL
CC[C@H](C)[C@H](NC(=O)CN)C(=O)NCC(=O)N[C@@H](C)C(=O)N[C@H](C(=O)N[C@@H](CC(C)C)C(=O)N[C@@H](CCCCN)C(=O)N[C@H](C(=O)N[C@@H](CC(C)C)C(=O)N[C@H](C(=O)N[C@H](C(=O)NCC(=O)N[C@@H](CC(C)C)C(=O)N1CCC[C@H]1C(=O)N[C@@H](C)C(=O)N[C@@H](CC(C)C)C(=O)N[C@H](C(=O)N[C@@H](CO)C(=O)N[C@@H](Cc1c[nH]c2ccccc12)C(=O)N[C@H](C(=O)N[C@@H](CCCCN)C(=O)N[C@@H](CCCNC(=N)N)C(=O)N[C@@H](CCCCN)C(=O)N[C@@H](CCCNC(=N)N)C(=O)N[C@@H](CCC(N)=O)C(=O)N[C@@H](CCC(N)=O)C(N)=O)[C@@H](C)CC)[C@@H](C)CC)[C@@H](C)O)[C@@H](C)O)C(C)C)C(C)C — MIC (Staphylococcus epidermidis; broth microdilution; KCTC 1917; 16 h, 37 °C): 1.6 µM
O=C(/C=C/c1ccccc1)N/N=C/c1ccccc1Cl — MIC (Aspergillus niger; tube dilution; 7 days, 25 °C): < 25.1 µM
